# Earlier results as cited in several papers.
# Lines come from different studies, so protocols differ.
# Target: CYP2C8
Compound,assay,system,setting,quantity,value
CO[C@H]1/C=C/O[C@@]2(C)Oc3c(C)c(O)c4c(O)c(c(/C=N/N5CCN(C)CC5)c(O)c4c3C2=O)NC(=O)/C(C)=C\C=C\[C@H](C)[C@H](O)[C@@H](C)[C@@H](O)[C@@H](C)[C@H](OC(C)=O)[C@@H]1C,inducer,,,EC50,0.3 µM
CC(C)(CO)c1cc2cc(NC(=O)C3(c4ccc5c(c4)OC(F)(F)O5)CC3)c(F)cc2n1C[C@@H](O)CO,inhibitor,,,Ki,13 µM
N#CCNC(=O)c1ccc(-c2ccnc(Nc3ccc(N4CCOCC4)cc3)n2)cc1,,human hepatocytes,,contribution to metabolism,19%
COC(=O)N[C@H](C(=O)N1CCC[C@H]1c1nc(-c2ccc3c(c2)O[C@@H](c2ccccc2)n2c-3cc3cc(-c4c[nH]c([C@@H]5CCCN5C(=O)[C@@H](NC(=O)OC)C(C)C)n4)ccc32)c[nH]1)C(C)C,inhibitor,human liver microsomes,,IC50,> 100 µM
N#CCNC(=O)c1ccc(-c2ccnc(Nc3ccc(N4CCOCC4=O)cc3)n2)cc1,"enzyme activity, inhibitor",,concentration not given,inhibition,no inhibition
C=C[C@@H]1C[C@]1(NC(=O)[C@@H]1C[C@@H]2CN1C(=O)[C@H](C(C)(C)C)NC(=O)O[C@@H]1C[C@H]1CCCCCc1nc3ccc(OC)cc3nc1O2)C(=O)NS(=O)(=O)C1CC1,inhibitor,human liver microsomes,,IC50,6 µM
COC(=O)[C@H](c1ccccc1Cl)N1CCc2sccc2C1,,,,Ki,26.8 µM
CNCc1cn(S(=O)(=O)c2cccc(F)c2)c(-c2ccc(F)cc2F)c1OC,"enzyme activity, inhibitor",,,IC50,> 50 µM
Cc1ccc(NC(=O)c2ccc(CN3CCN(C)CC3)cc2)cc1Nc1nc(-c2cccnc2)cs1,reversible inhibitor,,,IC50,4.12 µM
Cc1nn(C)cc1S(=O)(=O)NC(=O)c1ccc(-n2ccc(OCC(C)(C)C(F)(F)F)n2)nc1N1C[C@@H](C)CC1(C)C,inhibitor,,,Ki,8.35 µM
COc1cc(Cc2cnc(N)nc2N)cc(OC)c1OC,inhibitor,,,Ki,29 to 34 µM
CO[C@H]1/C=C/O[C@@]2(C)Oc3c(C)c(O)c4c(O)c(c(/C=N/N5CCN(C)CC5)c(O)c4c3C2=O)NC(=O)/C(C)=C\C=C\[C@H](C)[C@H](O)[C@@H](C)[C@@H](O)[C@@H](C)[C@H](OC(C)=O)[C@@H]1C,enzyme induction,,Simcyp compound file,EC50,0.3 µM

# Repeated from above:
Compound,assay,system,setting,quantity,value
C=C[C@@H]1C[C@]1(NC(=O)[C@@H]1C[C@@H]2CN1C(=O)[C@H](C(C)(C)C)NC(=O)O[C@@H]1C[C@H]1CCCCCc1nc3ccc(OC)cc3nc1O2)C(=O)NS(=O)(=O)C1CC1,inhibitor,human liver microsomes,,IC50,6 µM
